# Experimental data of several laboratories.
# Each line is one published result; not all experiments were run side by side.
# STK32C: Serine/threonine-protein kinase 32C (STK32C, Homo sapiens, UniProt Q86UX6)
# UniProt Q86UX6, sequence (whole entry, looked up): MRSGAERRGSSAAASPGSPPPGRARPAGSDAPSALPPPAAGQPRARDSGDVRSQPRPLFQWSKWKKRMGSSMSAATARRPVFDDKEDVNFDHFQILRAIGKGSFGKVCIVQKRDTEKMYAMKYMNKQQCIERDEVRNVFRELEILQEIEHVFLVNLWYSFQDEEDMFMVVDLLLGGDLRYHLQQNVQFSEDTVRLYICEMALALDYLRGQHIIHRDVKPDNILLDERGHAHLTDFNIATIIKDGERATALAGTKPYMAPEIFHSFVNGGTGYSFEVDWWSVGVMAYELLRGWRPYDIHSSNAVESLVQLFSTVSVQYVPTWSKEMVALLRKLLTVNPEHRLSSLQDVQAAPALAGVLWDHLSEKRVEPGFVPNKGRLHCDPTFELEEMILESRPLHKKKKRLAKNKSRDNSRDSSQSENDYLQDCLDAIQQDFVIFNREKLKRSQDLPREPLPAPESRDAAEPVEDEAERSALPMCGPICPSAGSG
# UniProt Q96D53, sequence (whole entry, looked up): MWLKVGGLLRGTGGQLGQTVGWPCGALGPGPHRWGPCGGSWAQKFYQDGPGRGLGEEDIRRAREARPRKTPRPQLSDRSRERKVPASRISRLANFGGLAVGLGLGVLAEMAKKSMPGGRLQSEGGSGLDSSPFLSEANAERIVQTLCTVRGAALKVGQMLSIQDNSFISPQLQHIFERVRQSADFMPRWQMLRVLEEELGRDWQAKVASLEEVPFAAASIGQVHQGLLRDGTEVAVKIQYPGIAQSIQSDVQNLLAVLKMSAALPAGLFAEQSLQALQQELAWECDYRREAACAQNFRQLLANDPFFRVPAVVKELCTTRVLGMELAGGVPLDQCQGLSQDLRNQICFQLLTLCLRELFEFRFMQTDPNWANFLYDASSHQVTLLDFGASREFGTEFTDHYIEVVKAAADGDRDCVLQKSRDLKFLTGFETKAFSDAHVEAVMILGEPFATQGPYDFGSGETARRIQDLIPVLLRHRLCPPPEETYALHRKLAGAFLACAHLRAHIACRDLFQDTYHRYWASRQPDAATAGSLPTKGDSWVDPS
# UniProt Q9UEE5, sequence (whole entry, looked up): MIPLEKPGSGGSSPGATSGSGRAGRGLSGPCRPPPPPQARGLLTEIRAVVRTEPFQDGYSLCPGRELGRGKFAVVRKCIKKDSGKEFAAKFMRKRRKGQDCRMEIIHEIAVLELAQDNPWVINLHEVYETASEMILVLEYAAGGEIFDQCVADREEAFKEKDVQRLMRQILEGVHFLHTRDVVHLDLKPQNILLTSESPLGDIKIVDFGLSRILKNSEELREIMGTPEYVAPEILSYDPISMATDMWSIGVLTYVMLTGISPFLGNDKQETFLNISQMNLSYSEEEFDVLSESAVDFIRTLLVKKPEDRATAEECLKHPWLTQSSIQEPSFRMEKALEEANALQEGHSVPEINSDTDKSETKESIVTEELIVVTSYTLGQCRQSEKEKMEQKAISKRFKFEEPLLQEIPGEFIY
# UniProt Q9H792, sequence (whole entry, looked up): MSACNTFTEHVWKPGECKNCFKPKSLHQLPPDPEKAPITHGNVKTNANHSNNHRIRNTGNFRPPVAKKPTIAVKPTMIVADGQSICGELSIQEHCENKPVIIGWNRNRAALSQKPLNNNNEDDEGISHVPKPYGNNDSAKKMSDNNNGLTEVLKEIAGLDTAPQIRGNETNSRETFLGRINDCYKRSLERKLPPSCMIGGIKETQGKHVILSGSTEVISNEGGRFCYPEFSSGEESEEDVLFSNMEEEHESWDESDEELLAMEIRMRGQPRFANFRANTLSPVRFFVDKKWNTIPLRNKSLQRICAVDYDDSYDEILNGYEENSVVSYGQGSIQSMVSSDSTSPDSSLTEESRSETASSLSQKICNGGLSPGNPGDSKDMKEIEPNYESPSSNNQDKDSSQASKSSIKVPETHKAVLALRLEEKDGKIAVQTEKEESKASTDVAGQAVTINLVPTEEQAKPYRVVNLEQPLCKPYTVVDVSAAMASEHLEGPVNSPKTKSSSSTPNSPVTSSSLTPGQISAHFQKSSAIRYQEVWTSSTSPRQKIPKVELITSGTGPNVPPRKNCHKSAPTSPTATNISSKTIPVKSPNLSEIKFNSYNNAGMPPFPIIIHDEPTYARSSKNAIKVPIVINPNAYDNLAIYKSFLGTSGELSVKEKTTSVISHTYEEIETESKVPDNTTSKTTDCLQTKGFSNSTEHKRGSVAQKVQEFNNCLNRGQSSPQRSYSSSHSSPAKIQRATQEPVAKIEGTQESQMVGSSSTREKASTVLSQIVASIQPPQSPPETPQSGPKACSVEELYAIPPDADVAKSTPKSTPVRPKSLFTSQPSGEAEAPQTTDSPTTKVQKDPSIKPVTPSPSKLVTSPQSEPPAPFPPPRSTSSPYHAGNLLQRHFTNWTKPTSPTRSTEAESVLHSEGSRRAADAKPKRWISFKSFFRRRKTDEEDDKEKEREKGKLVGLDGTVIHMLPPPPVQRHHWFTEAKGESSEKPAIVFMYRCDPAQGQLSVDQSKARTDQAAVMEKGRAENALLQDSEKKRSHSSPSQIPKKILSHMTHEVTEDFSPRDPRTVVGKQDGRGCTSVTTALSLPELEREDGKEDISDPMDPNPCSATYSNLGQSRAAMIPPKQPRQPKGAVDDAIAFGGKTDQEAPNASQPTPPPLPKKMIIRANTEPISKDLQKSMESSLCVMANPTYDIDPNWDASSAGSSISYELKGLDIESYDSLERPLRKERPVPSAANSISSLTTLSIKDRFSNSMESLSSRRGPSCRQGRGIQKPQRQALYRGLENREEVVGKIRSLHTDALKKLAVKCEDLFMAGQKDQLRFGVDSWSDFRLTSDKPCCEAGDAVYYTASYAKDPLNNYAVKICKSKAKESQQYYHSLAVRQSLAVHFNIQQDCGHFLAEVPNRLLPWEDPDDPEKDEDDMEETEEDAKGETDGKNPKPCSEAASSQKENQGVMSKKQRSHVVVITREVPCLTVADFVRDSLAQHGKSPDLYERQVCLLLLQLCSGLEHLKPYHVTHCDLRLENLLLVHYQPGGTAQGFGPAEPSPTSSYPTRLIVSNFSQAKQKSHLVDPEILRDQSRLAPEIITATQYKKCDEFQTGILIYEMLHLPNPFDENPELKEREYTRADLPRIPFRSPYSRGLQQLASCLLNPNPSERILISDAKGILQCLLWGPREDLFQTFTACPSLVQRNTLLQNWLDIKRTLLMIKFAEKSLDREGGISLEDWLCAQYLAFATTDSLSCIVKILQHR
SMILES,tested on,test,test system,setting,endpoint,result
[2H]C([2H])([2H])n1cc2cc(Nc3nc(=O)n(Cc4ncn(C)n4)c(=O)n3Cc3cc(F)c(F)cc3F)c(Cl)cc2n1,,,"male Sprague-Dawley rat, plasma","oral, 25 mg/kg",bioavailability,73.6%
CC[C@H](C)CCCCC(=O)N[C@@H](CCN)C(=O)N[C@H](C(=O)N[C@@H](CCN)C(=O)N[C@H]1CCNC(=O)[C@H]([C@@H](C)O)NC(=O)[C@H](CCN)NC(=O)[C@H](CCN)NC(=O)[C@H](CC(C)C)NC(=O)[C@@H](CC(C)C)NC(=O)[C@H](CCN)NC1=O)[C@@H](C)O,,,"male Sprague-Dawley rat, plasma","subcutaneous, 10 mg/kg",half-life,122 min
CC(=O)c1c(C)c2cnc(Nc3ccc(C4CCN(CCS(C)(=O)=O)CC4)cn3)nc2n(C2CCCC2)c1=O,,general toxicity,beagle dog,"oral, multiple doses",MTD,6 mg/kg/day
CC(C)(N)CNC(=O)O[C@H]1CCC[C@@]2(C1)OOC1(O2)C2CC3CC(C2)CC1C3 (some centres unmarked),,,"male CD-1 mouse, plasma","intravenous, 3 mg/kg",AUC(0-t),648 ng·h/mL
C[C@]12CC[C@H]3[C@@H](CC=C4CC(O)CC[C@@]43CO)[C@@H]1CCC2O (some centres unmarked),,,"rat, plasma","intraperitoneal, 10 mg/kg",Cmax,2810 ng/mL
Cl.Cn1c(=O)n(CCCCN2CCC3(CC2)OCc2ccccc23)c2ccccc21,,,"male Sprague-Dawley rat, plasma","intravenous, 10 mg/kg",AUC(0-t),6400 ng·h/mL
CN(C)C1(CNC(=O)c2ccc3c(c2)CCN3C(=O)c2ccccc2)CCOCC1,,,"male C57BL/6 mouse, brain","intraperitoneal, 50 mg/kg, 2 h, unbound",concentration,42.3 nM
CC[C@H](C)[C@H](N)C(=O)N[C@@H](CC(C)C)C(=O)NCC(=O)N[C@@H](CCCNC(=N)N)C(=O)N[C@H](C(=O)N[C@@H](Cc1c[nH]c2ccccc12)C(=O)N[C@@H](CCCCN)C(=O)NCC(=O)N[C@H](C(=O)N[C@@H](CCCCN)C(=O)N[C@@H](CC(=O)O)C(=O)N[C@H](C(=O)N[C@@H](CC(C)C)C(N)=O)[C@@H](C)CC)[C@@H](C)CC)[C@@H](C)CC,,"chemical stability, HPLC","human, serum","1 mg/mL, 2 h",compound remaining,~35%
[2H]c1c([2H])c([C@]2([2H])CCCN2C(=O)C(C)(C)Oc2ccc3cn[nH]c3c2)c([2H])c([2H])c1C([2H])([2H])[2H],"STK17A (Homo sapiens, UniProt Q9UEE5)","binding, competition with immobilised ligand",,1 µM,remaining binding,71%
Nc1ncc(-c2nc(N3CCOCC3)nc(N3CCOCC3)n2)c(C(F)F)n1,STK32C,"binding, competition with immobilised ligand",,10 µM,remaining binding,100%
Cc1nn(C)cc1-c1nc2c(N3CCN(Cc4ccc(Cl)cc4)CC3)c(Cl)cnc2[nH]1,STK32C,"binding, competition with immobilised ligand",,1 µM,remaining binding,100%
Nc1c2c(nc3c1C(c1ccc(Cl)c(Cl)c1)c1ccc(OCC(=O)c4ccccc4)cc1O3)CCCC2 (centres unmarked),SH-SY5Y,"cell growth or viability, MTT",,0.4 µM,viability,80.7%
COc1ccc(F)cc1C(=O)NCc1ccc(-c2nn([C@@H](C)C(F)(F)F)c(N)c2C(N)=O)cc1,,,"human, plasma","oral, 200 mg, single dose",AUC(0-t),55000 ng·h/mL
C/C=C1/CN2CC[C@]34C(=C(C(=O)OC)[C@H]1C[C@H]23)Nc1ccccc14,,,Caco-2,"10 µM, 2 h, pH 7.4",efflux ratio,1
CC(C)CC(=O)OC[C@H]1O[C@@](C#N)(c2ccc3c(N)ncnn23)[C@H](O)[C@@H]1O,,,"monkey, plasma",,fraction unbound,0.289
CC1(C)NC(=O)N(c2cc(Cl)c(F)c(C(F)(F)F)c2)C1=O,,metabolic stability,"mouse, liver microsomes",,microsomal CLint,< 7 µL/min/mg
CN1CCN(S(=O)(=O)c2cc([N+](=O)[O-])ccc2N(CCOS(C)(=O)=O)CCOS(C)(=O)=O)CC1,,,"female SCID mouse, plasma","intraperitoneal, 10 mg/kg",MRT(0-inf),23.4 min
Cn1c(=O)ccc2ccc(F)c(CCNC[C@H]3CN(c4ncc5c(n4)NC(=O)CO5)C(=O)O3)c21,,metabolic stability,"human, hepatocytes",0.5 µM,hepatocyte CLint,1.1 µL/min/10⁶ cells
[18FH],,,"mouse, spleen","intravenous, 1 h",tracer uptake,0.16 %ID/g
COc1ncccc1-c1cnn2ccc(N3CCN(C(=O)OC(C)C)CC3)nc12,"COQ8B (Homo sapiens, UniProt Q96D53)","binding, competition with immobilised ligand",,1 µM,remaining binding,81%
CC[C@H](C)[C@@H]1NC(=O)[C@H](CCCNC(=N)N)NC(=O)C[C@@H](c2cccc3ccccc23)NC(=O)[C@@H]2CSSC[C@H](NC(=O)C[C@@H](c3cccc4ccccc34)NC(=O)[C@H](CCCNC(=N)N)NC(=O)[C@@H]3CCCN3C(=O)[C@@H]3CCCN3C1=O)C(=O)N[C@@H](Cc1ccccc1)C(=O)N1CCC[C@H]1C(=O)N[C@@H](CC(=O)O)C(=O)N[C@@H](CC(=O)O)C(=O)N[C@@H](Cc1ccccc1)C(=O)N2,,metabolic stability,"human, liver microsomes","200 µM, 6 h",compound remaining,~85%
CC(C)NCC(O)COc1cccc2ccccc12 (centres unmarked),,,Caco-2,"10 µM, 2 h, pH 7.4",Papp A→B,29.1 ×10⁻⁶ cm/s
N.N.[Cl][Pt][Cl],JeKo-1,"cell growth or viability, ATP luminescence",,"10 µM, 72 h",inhibition,100%
NCCNC(=O)O[C@H]1CCC[C@@]2(C1)OOC1(O2)C2CC3CC(C2)CC1C3 (some centres unmarked),,,"male CD-1 mouse, plasma","oral, 10 mg/kg",AUC(0-inf),1090 ng·h/mL
N=C(N)NCCC[C@@H](NC(=O)[C@@H](N)Cc1ccccc1)C(=O)N[C@@H](Cc1ccccc1)C(=O)N[C@@H](CCCCN)C(N)=O,,,"human, plasma","subcutaneous, 5 mg, multiple doses, once daily, patients",half-life,179 min
O=C(Nc1cccnn1)N1CCN([C@@H]2CCOc3cc(C(F)(F)F)ccc32)CC1,,,"male Sprague-Dawley rat, plasma","oral, 3 mg/kg",bioavailability,91%
CCC[C@@](N)(CO)CCc1ccc(OCCCCCC(C)C)cc1,,,"rat, plasma","oral, 100 mg/kg",bioavailability,28%
N=C(N)NCCC[C@H](NC(=O)[C@H](Cc1ccccc1)NC(=O)[C@H](CCC(N)=O)NC(=O)OCc1ccccc1)C(=O)c1nccs1,,,"female C57BL/6 mouse, plasma","intranasal, 5 mg/kg",AUC(0-t),126 ng·h/mL
C=C(C)[C@@H]1CC[C@]2(NCCN3CCS(=O)(=O)CC3)CC[C@]3(C)[C@H](CC[C@@H]4[C@@]5(C)CC=C(C6=CC[C@@](COc7ncccc7C#N)(C(=O)O)CC6)C(C)(C)[C@@H]5CC[C@]43C)[C@@H]12,,,"human, plasma","oral, 100 mg, fed, tablet",AUC(0-inf),58900 ng·h/mL
CC(C)C[C@H](NC(=O)[C@H](Cc1ccccc1)NC(=O)[C@H](Cc1ccccc1)NC(=O)Cc1ccc(-c2ccccc2)cc1)C(=O)N[C@@H](CCCCN)C(=O)N[C@@H](CCCNC(=N)N)C(=O)N[C@H](C(=O)N[C@@H](Cc1c[nH]c2ccccc12)C(=O)N[C@@H](CCCCN)C(=O)N[C@@H](CCCNC(=N)N)C(=O)O)C(C)C,,metabolic stability,"dog, liver microsomes",1 µM,half-life,37.9 min
COc1ccc(C[C@@H](C)[C@@H](C)Cc2ccc(OC)c(OC)c2)cc1OC,,general toxicity,male beagle dog,"oral, multiple doses",NOAEL,300 mg/kg/day
NC(=O)CC[C@@H]1NC(=O)[C@H](Cc2ccccc2)NC(=O)[C@H](Cc2ccc(O)cc2)NC(=O)[C@@H](N)CSSC[C@@H](C(=O)N2CCC[C@H]2C(=O)N[C@@H](CCCN=C(N)N)C(=O)NCC(N)=O)NC(=O)[C@H](CC(N)=O)NC1=O,,chemical stability,"male human, serum",490 µM,half-life,51.6 min
Nc1c2c(nc3c1C(c1cccc([N+](=O)[O-])c1)c1ccc(OCC(=O)c4ccc(Cl)cc4)cc1O3)CCCC2 (centres unmarked),SH-SY5Y,"cell growth or viability, MTT",,100 µM,viability,40.6%
Nc1nc(-c2ccccc2)nc2[nH]nc(Nc3ccc(C(F)(F)F)cc3)c12,,,"mouse, plasma","oral, 100 mg/kg, 1 h",concentration,965 ng/mL
Cc1[nH]c(C)c(S(=O)(=O)Nc2ccc(S(F)(F)(F)(F)F)cc2)c1C(=O)N1CCC(F)(F)C1,,,PAMPA,,Papp,6.4 ×10⁻⁶ cm/s
Cc1cc(C)nc(Nc2ncc(C(=O)NCCc3c(C)[nH]c4ccccc34)cn2)c1,,,"C57BL/6 mouse, plasma","intraperitoneal, 22 mg/kg",AUC(0-inf),1640 ng·h/mL
C/C=C1/CN2[C@@H]3C[C@@]45c6ccccc6N[C@]4(O3)[C@@H]2C[C@@H]1[C@@]5(COC(C)=O)C(=O)OC,,,Caco-2,pH 7.4,Papp B→A,36 ×10⁻⁶ cm/s
C#Cc1n[nH]c2c(-c3cn(C(C)c4ccccn4)c(=O)[nH]c3=O)cc(F)cc12 (centres unmarked),"PEAK1 (Homo sapiens, UniProt Q9H792)","enzyme activity, inhibitor",,1 µM,inhibition,-16.4%

# Some of these lines once more:
SMILES,tested on,test,test system,setting,endpoint,result
Cc1[nH]c(C)c(S(=O)(=O)Nc2ccc(S(F)(F)(F)(F)F)cc2)c1C(=O)N1CCC(F)(F)C1,,,PAMPA,,Papp,6.4 ×10⁻⁶ cm/s
COc1ncccc1-c1cnn2ccc(N3CCN(C(=O)OC(C)C)CC3)nc12,"COQ8B (Homo sapiens, UniProt Q96D53)","binding, competition with immobilised ligand",,1 µM,remaining binding,81%
CCC[C@@](N)(CO)CCc1ccc(OCCCCCC(C)C)cc1,,,"rat, plasma","oral, 100 mg/kg",bioavailability,28%
Cl.Cn1c(=O)n(CCCCN2CCC3(CC2)OCc2ccccc23)c2ccccc21,,,"male Sprague-Dawley rat, plasma","intravenous, 10 mg/kg",AUC(0-t),6400 ng·h/mL
